Experimental data of several laboratories.
Each numbered part is a random draw from the data of one study; scales do not carry over between parts. Positions count from the first letter of the parent shown.

Sample 1 — target: UBE2R2 UBC core domain (UniProt Q712K3); technique: yeast two-hybrid; medium: yeast; notes: mostly zero background; baseline: not given; direction: higher = stronger interaction
B1: MKRN3 RING domain (UniProt Q13064); chain FAVQRGMDKVCGICMEVVYEKANPNDRRFGILSNCNHSFCIRCIRRWRSARQFENRIVKSCPQCRVTSELVIPSE
B2: VPS8 RING domain (UniProt Q8N3P4); chain TRGLNPKQDYCSICLQQYKRRQEMADEIIVFSCGHLYHSFCLQNKECTVEFEGQTRWTCYKCSSSNKVGKLSE
B3: RNF6 RING domain (UniProt Q9Y252); chain NSIDSELGKICSVCISDYVTGNKLRQLPCMHEFHIHCIDRWLSENCTCPICRQPVLGSNIAN
B4: NFX1 RING domain (UniProt Q12986); chain IEQLTTEKYECMVCCELVRVTAPVWSCQSCYHVFHLNCIKKWARSPASQADGQSGWRCPACQNVSAHVPNTY
B5: RNF186 RING domain (UniProt Q9NXI6); chain HSGSTECDLECLVCREPYSCPRLPKLLACQHAFCAICLKLLLCVQDNTWSITCPLCRKVTAVPGGLI
B6: ZMYND11 RING domain (UniProt Q15326); chain DEIDWETENHDWYCFECHLPGEVLICDLCFRVYHSKCLSDEFRLRDSSSPWQCPVCRSIKKKNTNKQEM
B7: BFAR RING domain (UniProt Q9NZS9); chain GPQISVSEFSCHCCYDILVNPTTLNCGHSFCRHCLALWWASSKKTECPECREKWEGFPKVS
B8: TRIM41 RING domain (UniProt Q8WV44); chain PVQTLQEEAVCAICLDYFTDPVSIGCGHNFCRVCVTQLWGGEDEEDRDELDREEEEEDGEEE
B9: ZNRF4 RING domain (UniProt Q8WWF5); chain VRTFTWHNDLCAICLDEYEEGDQLKILPCSHTYHCKCIDPWFSQAPRRSCPVCKQSVAATEDSF
B10: TRIM11 RING domain (UniProt Q96F44); chain LSTNLQEEATCAICLDYFTDPVMTDCGHNFCRECIRRCWGQPEGPYACPECRELSPQRNLRP
Construct (chain): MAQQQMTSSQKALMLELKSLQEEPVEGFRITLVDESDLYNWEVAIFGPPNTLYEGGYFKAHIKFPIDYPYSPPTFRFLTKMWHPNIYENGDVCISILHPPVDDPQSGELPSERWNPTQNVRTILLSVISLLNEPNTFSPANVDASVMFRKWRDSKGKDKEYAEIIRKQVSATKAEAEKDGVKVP
Molecule	lacZ reporter activity
B1 (MKRN3 RING domain)	0
B2 (VPS8 RING domain)	0
B3 (RNF6 RING domain)	0
B4 (NFX1 RING domain)	0
B5 (RNF186 RING domain)	0
B6 (ZMYND11 RING domain)	0
B7 (BFAR RING domain)	0
B8 (TRIM41 RING domain)	0
DDVLTKDAGECVICLEELLQGDTIARLPCLCIYHKSCIDSWFEVNRSCPEHPAD (ZNRF1 RING domain (UniProt Q8ND25))	0
B9 (ZNRF4 RING domain)	0
B10 (TRIM11 RING domain)	0

Sample 2 — target: CCNB3, cyclin fold, Cln2 fusion (human); technique: yeast growth competition, sequencing; medium: yeast; notes: weak parent motif; baseline: not given; direction: higher = stronger binding
Starting sequence: WEE2 docking peptide (human); KELRQKLNFSYCE
Substitution	normalised enrichment score
KELRQKLNFAYCE [S10A]	0.211
KALRQKLNFSYCE [E2A]	0.327
KELRQKANFSYCE [L7A]	-0.0647
AELRQKLNFSYCE [K1A]	-0.157
KELAQKLNFSYCE [R4A]	-0.112
KELRQKLAFSYCE [N8A]	0.338
KELRQKLNFSYCA [E13A]	0.226

Sample 3 — technique: DHFR PCA, deep sequencing; medium: yeast; with: (+)-ABA 200 µM; baseline: wild-type fitted maximum; direction: higher = stronger binding
Target: ABI1, truncated, D143A, DHFR fusion (Arabidopsis thaliana)
Notes: methotrexate growth selection, single substitutions
Starting sequence: PYL1, truncated, DHFR fusion (Arabidopsis thaliana); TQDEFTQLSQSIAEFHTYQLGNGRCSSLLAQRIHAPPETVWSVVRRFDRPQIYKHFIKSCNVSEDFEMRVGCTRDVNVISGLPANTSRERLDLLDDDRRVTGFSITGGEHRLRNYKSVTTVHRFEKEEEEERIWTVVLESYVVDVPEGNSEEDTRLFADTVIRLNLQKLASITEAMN
Substitution	relative binding score [%]
V161W	21.8
G81Y	2.26
R99V	12.6
E174K	81.9
D65Q	98.1
V44S	9.71
R49D	81.2
S140I	-5.41
D96G	47.8
A30P	71.5
T39L	99.3
T154A	84.2
R132M	111
V70P	106
V137G	-6.54
I162C	84.5
I12E	49.9
R69E	101
V136R	25.6
S42K	104
T173C	107
S80Y	72.5
H16W	-16.2

Sample 4 — technique: universal PBM; molecule type: double-stranded DNA, one strand shown; medium: in vitro; tested at: 600 nM; direction: higher = stronger binding
Target: Sal-like protein 4, full length isoform A (SALL4, Homo sapiens, UniProt Q9UJQ4, residues 1-1053)
Sequence of UniProt Q9UJQ4 (whole entry, looked up): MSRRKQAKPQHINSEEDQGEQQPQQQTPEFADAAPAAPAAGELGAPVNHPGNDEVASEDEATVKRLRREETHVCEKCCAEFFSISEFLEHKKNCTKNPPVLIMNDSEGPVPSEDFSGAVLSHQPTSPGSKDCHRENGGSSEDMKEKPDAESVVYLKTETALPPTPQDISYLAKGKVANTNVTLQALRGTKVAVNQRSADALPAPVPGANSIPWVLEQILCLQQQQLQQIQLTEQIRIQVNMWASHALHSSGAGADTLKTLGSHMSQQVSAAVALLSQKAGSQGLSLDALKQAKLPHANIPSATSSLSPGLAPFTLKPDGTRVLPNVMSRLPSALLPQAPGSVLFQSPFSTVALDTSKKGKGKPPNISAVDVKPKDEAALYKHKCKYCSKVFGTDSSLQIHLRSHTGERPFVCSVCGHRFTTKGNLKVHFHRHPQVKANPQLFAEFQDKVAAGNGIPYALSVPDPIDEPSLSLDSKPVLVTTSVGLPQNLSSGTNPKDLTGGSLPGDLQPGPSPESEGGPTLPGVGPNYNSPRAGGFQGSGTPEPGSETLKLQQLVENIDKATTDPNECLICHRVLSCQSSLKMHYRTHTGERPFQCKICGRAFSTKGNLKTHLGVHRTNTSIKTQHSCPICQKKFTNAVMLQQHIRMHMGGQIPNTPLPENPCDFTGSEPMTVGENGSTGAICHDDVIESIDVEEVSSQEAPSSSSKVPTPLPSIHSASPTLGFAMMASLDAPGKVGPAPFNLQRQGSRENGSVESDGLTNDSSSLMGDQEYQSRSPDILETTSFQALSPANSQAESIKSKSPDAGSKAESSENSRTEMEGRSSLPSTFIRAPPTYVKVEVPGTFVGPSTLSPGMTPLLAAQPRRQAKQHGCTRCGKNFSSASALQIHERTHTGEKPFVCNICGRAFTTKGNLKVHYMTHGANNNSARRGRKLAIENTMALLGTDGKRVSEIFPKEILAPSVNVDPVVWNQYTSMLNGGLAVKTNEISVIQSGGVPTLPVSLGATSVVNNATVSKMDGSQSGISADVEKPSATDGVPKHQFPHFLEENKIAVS
Notes: 8-mer, flanks averaged, mean of replicates
Sequence	E-score
GCATGCAC	-0.0639
CTACTGGC	-0.162
GTTGTCCA	0.0587
CGTCTTTC	-0.107
GATTCACA	0.0663
ACAACTAG	-0.0363
AAATACGT	0.162
AAACCGAA	0.0583
GACGCACC	-0.243
AAGACAAT	0.276
CCTCTTGA	0.0469
GGCACATA	0.101
AATCTCCA	0.0812
AGACGACC	-0.187
CCAACTGC	-0.23
GGATGGGA	-0.157
GGCAAGTA	-0.0344
ACGGGGTA	-0.268
GAGGGAAA	0.0376
CGCGTGCC	-0.36
CTGTCTAC	0.0242
CGTTGACC	-0.0901
GGGGTGCA	-0.276
AATTTTCC	0.203
TAGCAGAA	0.0328

Sample 5 — target: JUN, bZIP domain (human); technique: DHFR protein complementation; medium: yeast; baseline: wild-type JUN-FOS pair; direction: higher = stronger binding
Notes: single substitutions, most at no-binding floor
Starting sequence: JUN, bZIP domain (human); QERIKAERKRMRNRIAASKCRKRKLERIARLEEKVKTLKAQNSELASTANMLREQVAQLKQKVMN; partner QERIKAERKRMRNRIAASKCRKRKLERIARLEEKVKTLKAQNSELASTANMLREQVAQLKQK
Substitution	binding fitness
Q41N	-0.819 natural log
A49H	-1 natural log
A49T	-0.168 natural log
Q55A	-0.574 natural log
A40S	-0.321 natural log
S47Y	-0.261 natural log
E54R	-0.422 natural log
V35F	-0.813 natural log
K34S	-0.147 natural log
M51K	-0.155 natural log
K34M	-0.0535 natural log
T37R	-0.197 natural log
S47F	-0.282 natural log
E54D	-0.385 natural log
S47W	-0.302 natural log
V56Q	-0.962 natural log
K34I	-0.153 natural log
K36W	-0.878 natural log
E54N	-0.443 natural log
I28V	-0.428 natural log
I28M	-0.454 natural log
